Assay results pooled from the literature.
Parts stem from different laboratories: compare values within a part only. Numbers after ± are the reported error.
Chain of UniProt P06213 (whole entry, looked up): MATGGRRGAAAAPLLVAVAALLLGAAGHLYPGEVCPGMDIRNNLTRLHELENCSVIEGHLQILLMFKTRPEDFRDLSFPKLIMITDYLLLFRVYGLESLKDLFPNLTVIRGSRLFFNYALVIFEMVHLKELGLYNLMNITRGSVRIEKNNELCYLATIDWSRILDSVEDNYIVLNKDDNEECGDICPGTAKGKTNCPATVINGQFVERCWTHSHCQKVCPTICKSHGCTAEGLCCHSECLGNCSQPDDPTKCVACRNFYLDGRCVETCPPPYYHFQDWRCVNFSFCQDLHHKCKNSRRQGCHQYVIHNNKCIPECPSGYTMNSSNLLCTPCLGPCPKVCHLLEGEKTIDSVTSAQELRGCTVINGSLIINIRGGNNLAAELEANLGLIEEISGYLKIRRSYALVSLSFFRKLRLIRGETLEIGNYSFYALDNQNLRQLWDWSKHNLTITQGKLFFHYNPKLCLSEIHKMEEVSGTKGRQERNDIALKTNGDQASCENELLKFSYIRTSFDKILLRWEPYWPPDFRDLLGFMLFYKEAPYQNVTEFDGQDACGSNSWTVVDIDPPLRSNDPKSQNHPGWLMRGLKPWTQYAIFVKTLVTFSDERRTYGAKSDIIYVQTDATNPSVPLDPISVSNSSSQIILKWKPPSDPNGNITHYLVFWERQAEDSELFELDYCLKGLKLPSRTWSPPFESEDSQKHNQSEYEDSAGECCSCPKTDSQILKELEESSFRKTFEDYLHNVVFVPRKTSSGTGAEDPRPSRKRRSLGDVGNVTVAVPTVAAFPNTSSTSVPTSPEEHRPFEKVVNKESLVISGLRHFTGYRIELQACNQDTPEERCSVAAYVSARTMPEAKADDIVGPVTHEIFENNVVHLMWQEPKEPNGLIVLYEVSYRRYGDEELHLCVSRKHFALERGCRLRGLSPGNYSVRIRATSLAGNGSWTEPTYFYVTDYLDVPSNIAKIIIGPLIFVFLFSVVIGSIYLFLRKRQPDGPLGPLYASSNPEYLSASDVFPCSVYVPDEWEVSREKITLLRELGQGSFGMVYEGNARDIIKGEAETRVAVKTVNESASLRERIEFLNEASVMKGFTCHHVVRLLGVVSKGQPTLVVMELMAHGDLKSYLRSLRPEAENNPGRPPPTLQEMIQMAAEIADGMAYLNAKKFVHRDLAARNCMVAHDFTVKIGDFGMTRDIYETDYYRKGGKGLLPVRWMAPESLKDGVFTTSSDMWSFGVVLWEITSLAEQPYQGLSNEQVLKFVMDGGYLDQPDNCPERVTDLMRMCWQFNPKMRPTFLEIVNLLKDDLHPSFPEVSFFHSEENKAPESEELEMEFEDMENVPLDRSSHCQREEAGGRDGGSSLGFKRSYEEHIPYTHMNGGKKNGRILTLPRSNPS
Chain of UniProt Q08881 (whole entry, looked up): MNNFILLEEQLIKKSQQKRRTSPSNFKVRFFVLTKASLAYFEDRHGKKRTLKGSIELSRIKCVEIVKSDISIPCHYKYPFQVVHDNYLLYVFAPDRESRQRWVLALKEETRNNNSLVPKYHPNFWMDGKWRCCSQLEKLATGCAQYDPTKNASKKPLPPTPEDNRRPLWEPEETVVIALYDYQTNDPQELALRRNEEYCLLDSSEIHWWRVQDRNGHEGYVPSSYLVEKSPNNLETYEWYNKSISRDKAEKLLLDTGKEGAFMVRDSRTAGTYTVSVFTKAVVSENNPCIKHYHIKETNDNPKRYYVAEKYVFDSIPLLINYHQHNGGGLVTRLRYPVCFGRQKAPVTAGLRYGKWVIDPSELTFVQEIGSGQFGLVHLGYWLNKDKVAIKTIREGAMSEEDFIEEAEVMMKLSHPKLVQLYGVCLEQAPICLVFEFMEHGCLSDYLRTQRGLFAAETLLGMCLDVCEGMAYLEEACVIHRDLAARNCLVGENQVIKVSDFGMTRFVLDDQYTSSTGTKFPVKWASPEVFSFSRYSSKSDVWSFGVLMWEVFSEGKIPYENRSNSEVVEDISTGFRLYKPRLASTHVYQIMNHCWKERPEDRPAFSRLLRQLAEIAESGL
Chain of UniProt Q15569 (whole entry, looked up): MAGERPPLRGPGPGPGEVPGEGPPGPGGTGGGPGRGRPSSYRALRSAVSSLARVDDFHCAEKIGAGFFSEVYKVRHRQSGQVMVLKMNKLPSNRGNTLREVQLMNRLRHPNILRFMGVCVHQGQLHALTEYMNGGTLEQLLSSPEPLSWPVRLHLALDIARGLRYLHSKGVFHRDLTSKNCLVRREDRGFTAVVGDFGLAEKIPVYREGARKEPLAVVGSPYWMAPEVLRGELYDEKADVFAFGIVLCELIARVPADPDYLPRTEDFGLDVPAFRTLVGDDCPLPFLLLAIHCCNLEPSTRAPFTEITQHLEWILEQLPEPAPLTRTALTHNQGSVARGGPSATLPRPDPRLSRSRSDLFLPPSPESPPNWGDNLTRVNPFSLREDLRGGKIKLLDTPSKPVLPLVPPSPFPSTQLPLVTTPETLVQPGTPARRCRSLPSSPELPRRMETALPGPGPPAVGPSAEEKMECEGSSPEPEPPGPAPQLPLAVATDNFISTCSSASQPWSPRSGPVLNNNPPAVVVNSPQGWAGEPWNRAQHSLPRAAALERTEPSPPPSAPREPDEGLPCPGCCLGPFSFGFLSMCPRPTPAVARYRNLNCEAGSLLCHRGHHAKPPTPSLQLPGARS
Chain of UniProt P21127 (whole entry, looked up): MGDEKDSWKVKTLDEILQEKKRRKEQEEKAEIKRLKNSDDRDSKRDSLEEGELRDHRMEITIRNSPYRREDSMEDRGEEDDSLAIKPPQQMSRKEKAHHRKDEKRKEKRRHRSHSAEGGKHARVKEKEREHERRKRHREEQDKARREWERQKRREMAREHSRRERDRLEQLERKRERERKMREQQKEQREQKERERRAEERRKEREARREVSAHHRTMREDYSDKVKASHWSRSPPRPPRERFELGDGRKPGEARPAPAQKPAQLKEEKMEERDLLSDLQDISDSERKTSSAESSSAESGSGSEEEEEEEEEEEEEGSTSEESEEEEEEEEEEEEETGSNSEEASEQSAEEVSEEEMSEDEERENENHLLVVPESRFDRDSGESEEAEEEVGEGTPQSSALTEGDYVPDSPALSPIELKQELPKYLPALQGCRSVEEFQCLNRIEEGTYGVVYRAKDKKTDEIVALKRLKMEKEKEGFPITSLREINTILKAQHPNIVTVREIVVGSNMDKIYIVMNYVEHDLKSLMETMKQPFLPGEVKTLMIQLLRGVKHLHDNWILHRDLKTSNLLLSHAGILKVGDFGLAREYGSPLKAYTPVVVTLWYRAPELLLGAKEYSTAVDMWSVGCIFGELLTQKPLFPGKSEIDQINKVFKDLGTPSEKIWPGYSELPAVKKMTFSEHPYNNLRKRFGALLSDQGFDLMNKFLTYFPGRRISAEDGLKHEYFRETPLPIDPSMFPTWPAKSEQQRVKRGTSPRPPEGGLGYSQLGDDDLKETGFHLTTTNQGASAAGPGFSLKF
Chain of UniProt P36894 (whole entry, looked up): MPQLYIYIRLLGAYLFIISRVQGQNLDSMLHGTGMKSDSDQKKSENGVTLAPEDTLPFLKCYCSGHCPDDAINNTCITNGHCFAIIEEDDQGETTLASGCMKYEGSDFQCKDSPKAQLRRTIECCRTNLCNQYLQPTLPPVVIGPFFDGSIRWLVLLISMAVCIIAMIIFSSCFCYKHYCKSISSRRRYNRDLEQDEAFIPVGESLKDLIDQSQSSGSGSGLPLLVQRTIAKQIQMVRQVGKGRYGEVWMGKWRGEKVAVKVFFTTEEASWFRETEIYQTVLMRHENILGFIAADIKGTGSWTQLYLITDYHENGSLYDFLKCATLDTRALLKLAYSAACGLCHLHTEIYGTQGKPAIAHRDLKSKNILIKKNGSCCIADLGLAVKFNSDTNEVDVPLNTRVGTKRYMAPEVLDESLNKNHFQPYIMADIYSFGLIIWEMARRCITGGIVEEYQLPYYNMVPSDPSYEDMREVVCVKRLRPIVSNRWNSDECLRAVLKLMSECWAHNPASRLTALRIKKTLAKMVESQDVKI
Chain of UniProt Q05940 (whole entry, looked up): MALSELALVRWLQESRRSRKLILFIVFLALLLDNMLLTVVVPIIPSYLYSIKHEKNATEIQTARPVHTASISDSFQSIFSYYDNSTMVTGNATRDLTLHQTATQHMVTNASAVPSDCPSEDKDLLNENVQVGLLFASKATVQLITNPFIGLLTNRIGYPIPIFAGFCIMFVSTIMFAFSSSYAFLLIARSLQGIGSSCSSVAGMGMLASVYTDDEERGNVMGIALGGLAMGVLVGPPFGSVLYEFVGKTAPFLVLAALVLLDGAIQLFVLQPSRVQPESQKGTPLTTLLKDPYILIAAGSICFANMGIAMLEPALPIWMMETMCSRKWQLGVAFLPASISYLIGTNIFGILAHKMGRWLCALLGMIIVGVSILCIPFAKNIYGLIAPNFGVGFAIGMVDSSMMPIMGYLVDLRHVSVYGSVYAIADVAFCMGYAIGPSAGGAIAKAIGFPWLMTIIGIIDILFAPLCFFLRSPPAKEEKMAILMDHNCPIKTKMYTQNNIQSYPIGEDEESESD

Series 1
SMILES: CSc1nc(-c2ccnc(N[C@@H](C)c3ccccc3)c2)c(-c2ccc(F)cc2)[nH]1 (racemic)
Observed: enzyme activity
Action: inhibitor
Tested at: 0.5 µM
Baseline: control
Measurement: remaining activity
MAP/microtubule affinity-regulating kinase 3 (MARK3, Homo sapiens, UniProt P27448): 100%
Insulin receptor (INSR, Homo sapiens, UniProt P06213): 100%
cAMP-dependent protein kinase catalytic subunit PRKX (PRKX, Homo sapiens, UniProt P51817): 91.5%
Serine/threonine-protein kinase 25 (STK25, Homo sapiens, UniProt O00506): 118%
Tyrosine-protein kinase ITK/TSK (ITK, Homo sapiens, UniProt Q08881): 91.6%
Megakaryocyte-associated tyrosine-protein kinase (MATK, Homo sapiens, UniProt P42679): 87%
Tyrosine-protein kinase Fyn (FYN, Homo sapiens, UniProt P06241): 98.7%
Proto-oncogene tyrosine-protein kinase Src (SRC, Homo sapiens, UniProt P12931): 99%

Series 2
Target: Beta-1 adrenergic receptor (ADRB1, Homo sapiens, UniProt P08588)
Chain of UniProt P08588 (whole entry, looked up): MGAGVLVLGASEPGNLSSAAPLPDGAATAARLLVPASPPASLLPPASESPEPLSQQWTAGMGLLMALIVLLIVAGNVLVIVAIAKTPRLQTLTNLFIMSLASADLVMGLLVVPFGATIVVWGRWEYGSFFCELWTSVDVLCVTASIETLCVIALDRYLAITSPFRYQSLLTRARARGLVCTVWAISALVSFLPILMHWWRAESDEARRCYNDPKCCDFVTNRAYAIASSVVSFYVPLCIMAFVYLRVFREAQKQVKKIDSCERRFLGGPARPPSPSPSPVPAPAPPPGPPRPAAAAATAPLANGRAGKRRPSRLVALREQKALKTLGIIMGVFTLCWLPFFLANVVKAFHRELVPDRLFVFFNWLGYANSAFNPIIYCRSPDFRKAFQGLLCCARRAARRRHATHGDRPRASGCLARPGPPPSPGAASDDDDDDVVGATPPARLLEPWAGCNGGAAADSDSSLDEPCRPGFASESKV
Action: antagonist
Measurement: IC50
CC(O)CNCc1c(Cl)cccc1Cl (centres unmarked): ≥ 100 µM
O=C1COc2ccc(N3CCOCC3)nc2CN1Cc1ccc(F)cc1: ≥ 100 µM
CCOc1ccccc1N1CCN([S+](=O)([O-])c2cc(OC)ccc2OC)CC1: ≥ 100 µM
C[C@H](O)c1onc(-c2ccccc2)c1C(=O)N1CCOCC1: ≥ 100 µM
O=C(Nc1cccc(-c2ccc(N3CCOCC3)nn2)c1)Nc1cc(Cl)ccc1Cl: ≥ 100 µM
CC(C)n1cc(-c2cc(C(=O)N3CCC(C)(C)C3)c3ccc(F)cc3n2)cn1: ≥ 100 µM
Nn1c(SCc2cc(=O)oc3cc(O)ccc23)nnc1-c1ccccc1Br: ≥ 100 µM
Cc1noc2c(-c3cccnc3NCc3cnccn3)cc(-c3ccccc3)nc12: ≥ 100 µM
O=C(Nc1ccc([C@@H](O)[C@H]2COCC(=O)N2CCCc2ccccc2)cc1)C1CC1: ≥ 100 µM

Series 3
Compound: O=C(NCc1ncc(C(F)(F)F)cc1Cl)c1ccc2c(c1)C1(CCS(=O)(=O)CC1)[C@H](C1CC1)N2S(=O)(=O)c1ccc(F)cc1
Technique: competition with immobilised ligand
Tested at: 1 µM
Measurement: remaining binding
Tyrosine-protein kinase ABL1, non-phosphorylated (ABL1, Homo sapiens, UniProt P00519, F317L); cell-free assay: 74%
Dual specificity testis-specific protein kinase 1 (TESK1, Homo sapiens, UniProt Q15569); cell-free assay: 91%
Phosphatidylinositol 3-kinase catalytic subunit type 3 (PIK3C3, Homo sapiens, UniProt Q8NEB9); cell-free assay: 86%
Serine/threonine-protein kinase B-raf (BRAF, Homo sapiens, UniProt P15056); cell-free assay: 91%
Dual specificity mitogen-activated protein kinase kinase 6 (MAP2K6, Homo sapiens, UniProt P52564); cell-free assay: 100%
Protein kinase C epsilon type (PRKCE, Homo sapiens, UniProt Q02156); cell-free assay: 69%
Cyclin-dependent kinase 11B (CDK11B, Homo sapiens, UniProt P21127); cell-free assay: 100%
Bone morphogenetic protein receptor type-1A (BMPR1A, Homo sapiens, UniProt P36894); binding: 100%
Phosphatidylinositol 4-kinase beta (PI4KB, Homo sapiens, UniProt Q9UBF8); cell-free assay: 78%
Activated CDC42 kinase 1 (TNK2, Homo sapiens, UniProt Q07912); cell-free assay: 85%
Epidermal growth factor receptor (EGFR, Homo sapiens, UniProt P00533, del747-752/P753S); cell-free assay: 100%
Serine/threonine-protein kinase BRSK2 (BRSK2, Homo sapiens, UniProt Q8IWQ3); cell-free assay: 100%
Insulin receptor (INSR, Homo sapiens, UniProt P06213); cell-free assay: 100%
Phosphatidylinositol 4,5-bisphosphate 3-kinase catalytic subunit delta isoform (PIK3CD, Homo sapiens, UniProt O00329); cell-free assay: 67%

Mixed results
NCCc1ccc(O)c(O)c1 — Km (Synaptic vesicular amine transporter (SLC18A2, Homo sapiens, UniProt Q05940); substrate): 1.36 ± 0.1 µM

Excerpt of the above (series 3):
Bone morphogenetic protein receptor type-1A (BMPR1A, Homo sapiens, UniProt P36894); binding: 100%
Phosphatidylinositol 4,5-bisphosphate 3-kinase catalytic subunit delta isoform (PIK3CD, Homo sapiens, UniProt O00329); cell-free assay: 67%
